Published values pooled from the literature.
Every numbered part comes from another study and shows a few of its results, in no order.

Block 1
Target: Ras GTPase-activating protein-binding protein 1, full length (G3BP1, Homo sapiens, UniProt Q13283)
Sequence of UniProt Q13283 (whole entry, looked up): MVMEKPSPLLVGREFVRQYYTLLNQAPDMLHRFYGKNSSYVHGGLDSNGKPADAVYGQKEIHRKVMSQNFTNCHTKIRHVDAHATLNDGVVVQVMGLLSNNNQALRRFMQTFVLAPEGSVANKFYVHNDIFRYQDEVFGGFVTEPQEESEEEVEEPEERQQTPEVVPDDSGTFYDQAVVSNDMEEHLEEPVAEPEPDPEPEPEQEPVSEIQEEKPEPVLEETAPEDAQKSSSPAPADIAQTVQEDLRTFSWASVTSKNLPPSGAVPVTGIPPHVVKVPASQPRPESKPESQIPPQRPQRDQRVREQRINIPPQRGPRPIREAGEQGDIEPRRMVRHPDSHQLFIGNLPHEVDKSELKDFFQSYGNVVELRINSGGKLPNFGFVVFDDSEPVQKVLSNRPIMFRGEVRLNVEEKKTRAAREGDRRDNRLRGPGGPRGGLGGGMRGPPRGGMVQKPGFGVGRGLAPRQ
Method: RNA Bind-n-Seq
Form: RNA
Sample: in vitro
Tested at: 200 nM
Setting: whole 134-nt RNA, ends assumed
With: 150 mM KCl
Relative to: input library
Reading: higher = stronger binding
Measurement: log2 enrichment
Constant ends, left off below: GGGAGUUCUACAGUCCGACGAUC … UGGAAUUCUCGGGUGUCAAGG
CCUGUGCUACACAUCGUAUGUACCGAAUCGGGGAAAAAAGGGAAAAAAGGGGAAAAAAGGAAAGUAUUAUGUUACGCCGUUCGGAUCUGC: -0.34
UCAAGUCCUGUGCUACACAUCGUAUGUACCGAAUCGGAAGGGGAAGGGAAGGGGAAAGUAUUAUGUUACGCCGUUCGGAUCUGCACUUCC: 1.25
GUCCUGUGCUACACAUCGUAUGUACCGAAUCGGUUUUUGGGGUUUUUGGGUUUUUGGGAAAGUAUUAUGUUACGCCGUUCGGAUCUGCAC: -0.649
UCAAGUCCUGUGCUACACAUCGUAUGUACCGAAUCGGAGGUUUUUUUGGAAAGGAAAGUAUUAUGUUACGCCGUUCGGAUCUGCACUUCC: -1.09
CCUGUGCUACACAUCGUAUGUACCGAAUCGGUUUUUUUGGUUUUUUUGGGGUUUUUUUGGGAAAGUAUUAUGUUACGCCGUUCGGAUCUG: -1.05
ACCAAAAAGGUGGGCAUCUUUGGGAAGUGGGGCAAGGGGGGGAUAGGGAGGGGGGUAACACUUUGGGAACAGGUGGUCCCAGGUCGUUUC: 1.1
AAGUCCUGUGCUACACAUCGUAUGUACCGAAUCGGAAAAAAAGGAAAAAGGAAAGGAAAGUAUUAUGUUACGCCGUUCGGAUCUGCACUU: -1.37
ACCAUGCAGGUGGGCAUCUUUGGGAAGUGGGGCAAGGGGGGGAUAGGGAGGGGGGUAACACUUUGGGAAAAGGUGGUCCCAGGUCGUUUC: 1.52
CUGUGCUACACAUCGUAUGUACCGAAUCGGGGAAAAAAGGGGAAAAAAGGGGAAAAAAGGGAAAGUAUUAUGUUACGCCGUUCGGAUCUG: -0.228
AAGUCCUGUGCUACACAUCGUAUGUACCGAAUCGGGAAAAGGGAAAAGGGAAAAGGGAAAGUAUUAUGUUACGCCGUUCGGAUCUGCACU: -0.148
UCAAGUCCUGUGCUACACAUCGUAUGUACCGAAUCGGGGAAAGGGAAAGGAAAGGAAAGUAUUAUGUUACGCCGUUCGGAUCUGCACUUC: -0.712
UGGCCCUGGUGGCAUGCGGGGAGGAAGAGGUGGCCUCAUGGAUCUUGGUGGUCCCGGUGGAAUGUUCAGAGGUGGCCGUGGUGGAGACAG: 0.256
UUCACAGCCAGCAGGCAUUGGAAUAUGGCACCAAACUCGUUGGAGGAACCACUCCAGGGAAAGGAGGCCAGACACAUCUGGGCUUACCUG: -0.252
UCCUGCCAACCUCUCUUAAUGCUCUGAGAGCCUCUGGUGUUGACAUAGAAGAGGAAACGGAGAAGAACCUGGAAAAGGUACAGACUAUCA: -1.52

Block 2
Target: Histone acetyltransferase KAT6A, winged helix 1, GST fusion (KAT6A, Homo sapiens, UniProt Q92794, residues 1-85)
Method: protein binding microarray
Form: double-stranded DNA, one strand shown
Sample: in vitro
Tested at: not given
Setting: 8-mer, flanks averaged, mean of 2 arrays, mostly near background
Relative to: not given
Reading: higher = stronger binding
Measurement: E-score
Target sequence (chain): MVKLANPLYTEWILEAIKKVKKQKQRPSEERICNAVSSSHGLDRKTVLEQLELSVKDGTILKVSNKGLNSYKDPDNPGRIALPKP
CTATGATC: -0.0276
TGTTCTAA: -0.1
AGGTGACT: -0.243
AGCTCCTC: -0.259
GACCATGA: -0.0734
GCTAGACA: -0.0268
AATAGCCG: 0.251
CCCTAAGG: -0.228
GTCTACTA: -0.0654
TTCGGCAA: -0.0176
ATACTTTC: -0.134
TAGCCAGA: -0.103
CACGCAGG: -0.0492
AACAGGAA: -0.111
CTAGTAAC: -0.0485
AAAGTGAA: -0.0371
GTGGGCCA: -0.138
ACATAAGC: 0.0648
GGATCGGA: 0.181
CCTATTAG: -0.0335
CGTGGACC: 0.195
ACGCAGCG: 0.269
AAAGTCTT: -0.206
CAGGCAGG: -0.28
CGACTTAC: 0.0422

Block 3
Target: RNA binding protein fox-1 homolog 2, RRM domain, GST-SBP tag (RBFOX2, Homo sapiens, UniProt O43251-10, residues 100-194)
Method: RNA Bind-n-Seq
Form: RNA
Sample: in vitro
Tested at: 365 nM
Setting: natural RNA segment, single round, ends assumed
Relative to: no-protein control
Reading: higher = stronger binding
Measurement: RBNS enrichment (R)
Constant ends, left off below: GGGAGUUCUACAGUCCGACGAUC … UGGAAUUCUCGGGUGCCAA
Target sequence (chain): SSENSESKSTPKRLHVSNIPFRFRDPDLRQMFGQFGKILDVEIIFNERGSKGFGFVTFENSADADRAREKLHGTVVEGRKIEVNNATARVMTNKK
CUGUCUCCAGGAAAACAAAGCAAACAAGGAUACCUAUGGAGACACGCUAAGAAGGAAUUACGCGAAUCGGCUCAAAAGUUAUGGUGGCCAAGAAGUGAUACAGGGUGUCA: 0.41
GUUUACAGCGAUUCCGUGGACCGGGGGUAUUUUGAUCAGGGGUGGUUUUGGUCUGGGAGGGUUUUGUUUGUUGGGUUUUUUUAAAAAAAAAUGACAAUGAAGAGACACUU: 0.991
UUUCAGACAUUCGCUCACGGACAAUACCAUCUCAGCUUUGCCCUUGCUCCGUGUGUCCACUCCUGCCCCCCUCCCCCAGGUUUUCCUGUUAUUUUCUUUCUCAGGGUCCU: 0.52
CAUAGGACCUCUGGCAUUUUAGAAUUACUAGCUGAAAAAUUGUAAUGUACCAACAGAAAUAUUAUUGUAAGAUGCCUUUCUUGUAUAAGAUAUGCCAAUAUUUGCUUUAA: 0.344
AUUGGUAUUCAAAGCAAAACUGACAGUUUUCCCCUGUGUCAGGUUUUGCCAUCCCAAUCUUAAGACUGUCUCAUAAUUACCAUGUUGAGGGAAACGCCCCCAGACUCCUG: 0.469
AGUUUUUCUUACGACUCAGACAGGUGGGAUGGACAGACAGGUGCAUGUUACUGCGUUCUGUGUCGGAAAGUAUAGUAUGCUCUAAGCAGUAGGCCUCUUGACUUUCUUAC: 0.776
GGCCAGAGAAGACAGUGCUCGUUAGCACUGGUCCAGGAAACCCUGGCUUGCUUUCCAAGCCCAAUGAAGGGAAAGUCAGCUUACAGAGCCAAUGAUGGAGCCACAUGAAU: 0.343
AUGGCCUACAUAGGUACUCCCCCCUACCCCUAGGAUGCAGAGAGACGGGAACACGCCGGAGGGUAGAGCUGGGGAGAACCCAUUCUUCCUUGGAAGGAUCCGCUGAAGGU: 0.833
GGUCAUUUUCUGAUUCUUGUUGUUGGGAGUCAAUAUAGCAUGCGUCACCAGUGUUUGGUACCCAAGUCGUUCCAGUGGGAACAAUGUCUGUUUGAGUAAACUAAGACUGA: 13.6
GUUUCCACAGCCUUCAGCCUGUUCUAGAACGAUCACUGCCUUACCCCUGCUGCUGCAGUGGUGUGAGUCGUUUCACGGCUGAUGUCCCUCGGGGGAUUAAAGGAUCUAAA: 0.322
AAGCAUUGAGGAAACUGAAAAAUCUUUGUAAGACCCUUAAUGGCUAAAGCCAUUGGCUGUAAUGAGUGUUACUGUGUGAGGCUUUGUGUAUGAGAUCUGUGCUGUAAGGC: 0.496
UGGCAUUUUUAAAAAAGUGCAAUCAAUAAAGCAGAGUUCUGUCAAGAAUGAGUAAGUUAACAGCCAGAGACAGACACUGUGCAGGCAUUGCAAAUAGAUGGAAUUACAGC: 0.691

Block 4
Target: Phosphate system positive regulatory protein PHO4, full length, GST-tagged (PHO4, Saccharomyces cerevisiae, UniProt P07270, residues 1-312)
Method: competition protein-binding microarray
Form: double-stranded DNA, one strand shown
Sample: in vitro
Tested at: 2 µM
Setting: whole 60-bp probe, lowest competitor level
With: Cbf1 competitor, 0.05 µM
Reading: higher = stronger binding
Measurement: fluorescence intensity
Constant ends, left off below: … GTCTTGATTCGCTTGACGCTGCTG
Target sequence (chain): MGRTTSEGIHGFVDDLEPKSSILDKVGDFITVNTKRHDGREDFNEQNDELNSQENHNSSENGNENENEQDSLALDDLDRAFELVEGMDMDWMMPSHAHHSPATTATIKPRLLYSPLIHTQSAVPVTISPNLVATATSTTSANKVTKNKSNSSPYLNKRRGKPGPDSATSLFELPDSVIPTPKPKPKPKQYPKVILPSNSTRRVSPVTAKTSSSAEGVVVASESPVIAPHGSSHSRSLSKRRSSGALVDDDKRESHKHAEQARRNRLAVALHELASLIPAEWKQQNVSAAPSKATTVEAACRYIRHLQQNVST
CGGGGTTAAGTTTGTTATGTGGGTGGCTTGCAGCAG: 5040 a.u.
TGTCACTGGGTTTAGCACGGGTGTCATCAAGCTATG: 10500 a.u.
AAGAAGCCATTAGAGCTCGTGCCAGGGAACTAGAAG: 12100 a.u.
TGCGCAACAACTTGTCACTAAACTTTATGTCTAGAA: 3060 a.u.
AGCATAATGCCGGACCATGTGAAAAGTTCACTCAAA: 6780 a.u.
CGCGAATGAGTTTGCCACGTCGTTTGCCCCGATGTT: 4490 a.u.
CCAGTGACAAGTCGGCACGTGAAGAAGCTAGAAGAC: 18200 a.u.
AAATTACTAAGTTGACCAGTGGGTGACGCCGTATGA: 3640 a.u.
GTTTCTCTACGATTACACGGGTGAAGCCATTCTCTG: 6280 a.u.
TGAAAGAAGAACCATCACGTGGAACATGCTTTTTAG: 14100 a.u.
GGTGGGGGACCTGTAGTCGTGCCGAGCGATCCGCTT: 6760 a.u.
TGCGCAACAACTTGTGATGTGGGTGTATGTCTAGAA: 5950 a.u.
AACGGAAATGCATCTCGCGTGGCAAGGCGGCTCGCT: 7540 a.u.
CGGGGTTAAGTTTTTCACGTGATTTGCTTGCAGCAG: 10400 a.u.
TCTGTTATTGCTGATCGCGTGGCCGTTAAATTGGTT: 8750 a.u.
CTTTCCCGATCTTGCTGCGTGGGTGTAGCACATTTG: 8160 a.u.
GCTGTGATAAAGAACTTCGTGCTTTTTTGGGTTACA: 6070 a.u.

Block 5
Target: Sal-like protein 4, full length isoform B (SALL4, Homo sapiens, UniProt Q9UJQ4-2, residues 1-616)
Method: universal PBM
Form: double-stranded DNA, one strand shown
Sample: in vitro
Tested at: not given
Setting: 8-mer, flanks averaged, mean of replicates
Reading: higher = stronger binding
Measurement: E-score
Construct (chain): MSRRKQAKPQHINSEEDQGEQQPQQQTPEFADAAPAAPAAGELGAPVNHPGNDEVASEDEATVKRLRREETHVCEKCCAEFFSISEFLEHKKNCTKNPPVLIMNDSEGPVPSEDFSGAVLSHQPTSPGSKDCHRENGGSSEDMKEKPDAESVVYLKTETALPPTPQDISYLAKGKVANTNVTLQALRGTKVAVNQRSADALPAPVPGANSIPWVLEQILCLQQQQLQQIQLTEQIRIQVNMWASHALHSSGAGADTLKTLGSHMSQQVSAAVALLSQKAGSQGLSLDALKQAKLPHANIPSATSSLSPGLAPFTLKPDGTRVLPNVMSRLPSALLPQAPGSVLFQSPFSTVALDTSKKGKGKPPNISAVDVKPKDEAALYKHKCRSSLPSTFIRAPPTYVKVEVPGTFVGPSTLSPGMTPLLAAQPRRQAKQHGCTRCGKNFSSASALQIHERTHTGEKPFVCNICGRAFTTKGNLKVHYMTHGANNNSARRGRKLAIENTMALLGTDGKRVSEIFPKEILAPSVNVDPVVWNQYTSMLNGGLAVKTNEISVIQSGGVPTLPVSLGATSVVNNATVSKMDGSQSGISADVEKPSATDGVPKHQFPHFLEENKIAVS
AGGTGGTG: -0.112
ATTTCTAA: 0.212
AATTGAAG: 0.25
AAAGAATC: 0.0274
AAACGACC: -0.136
AGATTAGC: -0.0108
TCGGACAA: 0.105
GAACATGC: -0.0403
GGTCCACC: -0.312
AGCATCAC: -0.249
AAACCCTT: 0.14
GGAACTCA: -0.0568
GACACCGA: -0.131
CTTGGTGC: -0.0713
GACGGTGC: -0.253
AACTGTCT: -0.11
CTGATACC: 0.061
ACGCCAAC: -0.061
GGAGTCCA: -0.159
CCTCTAGC: -0.106
CTTATCAC: 0.0352
GGATATAA: 0.169
GGACTACA: 0.0505

Repeated from above (block 2):
CCCTAAGG: -0.228
GTCTACTA: -0.0654
TTCGGCAA: -0.0176
ATACTTTC: -0.134
TAGCCAGA: -0.103
